Experimental data from different studies.
Numbered parts are unrelated; each lists some results of a single study.

Series 1
Target: Histone acetyltransferase KAT6A, winged helix 1, GST fusion (KAT6A, Homo sapiens, UniProt Q92794, residues 1-85)
Method: protein binding microarray
Molecule type: double-stranded DNA, one strand shown
Matrix: in vitro
Concentration: not given
Notes: 8-mer, flanks averaged, mean of 2 arrays, mostly near background
Relative to: not given
Reading: higher = stronger binding
Target sequence (chain): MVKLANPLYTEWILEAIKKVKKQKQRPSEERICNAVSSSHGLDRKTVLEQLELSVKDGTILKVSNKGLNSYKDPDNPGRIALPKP
The E-score of `GCAAGGTA` is reported as -0.0649.
The E-score of `TCAACAAA` is reported as -0.072.
The E-score of `CCTTAAAG` is reported as -0.224.

Series 2
Target: PABPC1L2, full length, GST fusion (mouse, UniProt A0ABA7IW68)
Method: RNAcompete
Molecule type: RNA
Matrix: in vitro
Concentration: 20 nM
Notes: 7-mer, probes averaged, single round
Relative to: mean of 7-mers
Reading: higher = stronger binding
Construct (chain): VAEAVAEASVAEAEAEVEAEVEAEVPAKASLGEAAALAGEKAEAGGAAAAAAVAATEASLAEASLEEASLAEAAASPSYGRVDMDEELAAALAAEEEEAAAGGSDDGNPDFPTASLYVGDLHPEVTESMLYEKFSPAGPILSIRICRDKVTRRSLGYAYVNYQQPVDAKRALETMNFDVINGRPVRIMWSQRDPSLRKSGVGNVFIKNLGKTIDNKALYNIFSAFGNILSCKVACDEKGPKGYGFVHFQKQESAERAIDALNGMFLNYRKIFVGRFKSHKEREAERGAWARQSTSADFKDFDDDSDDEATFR
`UGCUGUG` gave a 7-mer Z-score of -0.155.
The 7-mer Z-score of `AUUGGUU` is reported as -0.242.
`GGACAUU` gave a 7-mer Z-score of -0.104.

Series 3
Target: Interferon regulatory factor 5, full length, phosphomimetic (IRF5, Homo sapiens, UniProt Q13568-2, residues 1-514, K96S/S451D/S453D/S456D/S462D)
Method: protein-binding microarray
Molecule type: double-stranded DNA, one strand shown
Matrix: in vitro
Concentration: 250 nM
Notes: 60-bp whole probe
With: salmon DNA 0.4 mg/ml
Relative to: random background probes
Reading: higher = stronger binding
For `GCCTAGCACGACGGTTTCGGGTATGGGGACGTGCTAGTCTTGATTCGCTTGACGCTGCTG`, the log fluorescence was 7.49 z-score.
For `GCCTAGCACTCAACTCTTCTTTTGCTACTGTGCTAGGTCTTGATTCGCTTGACGCTGCTG`, the log fluorescence was 0.832 z-score.
The log fluorescence of `GCCTAGCACTTCCCTTTTAAGTTCTCTGAGTGCTAGGTCTTGATTCGCTTGACGCTGCTG` is reported as 0.789 z-score.

Single results of other studies
`PhoQ, residues 284 288 289 292 302 303 SMYGEC` gave a fold induction of 1.35 (PhoP, residues 12 14 15 18 19 NYFTV (Escherichia coli, UniProt P23836); Sort-seq, refers to: YFP reporter; E. coli; PhoQ-PhoP variant library, with: 10 µM Mg2+; relative to: high Mg2+ state, higher = stronger signaling).

For quick reference, copied from above (series 1):
The E-score of `TCAACAAA` is reported as -0.072.
